# Experimental data collected from several papers.
# Numbered parts are unrelated; each lists some results of a single study.

# Block 1
# Target: Ras GTPase-activating protein-binding protein 1, full length (G3BP1, Homo sapiens, UniProt Q13283)
# Chain of UniProt Q13283 (whole entry, looked up): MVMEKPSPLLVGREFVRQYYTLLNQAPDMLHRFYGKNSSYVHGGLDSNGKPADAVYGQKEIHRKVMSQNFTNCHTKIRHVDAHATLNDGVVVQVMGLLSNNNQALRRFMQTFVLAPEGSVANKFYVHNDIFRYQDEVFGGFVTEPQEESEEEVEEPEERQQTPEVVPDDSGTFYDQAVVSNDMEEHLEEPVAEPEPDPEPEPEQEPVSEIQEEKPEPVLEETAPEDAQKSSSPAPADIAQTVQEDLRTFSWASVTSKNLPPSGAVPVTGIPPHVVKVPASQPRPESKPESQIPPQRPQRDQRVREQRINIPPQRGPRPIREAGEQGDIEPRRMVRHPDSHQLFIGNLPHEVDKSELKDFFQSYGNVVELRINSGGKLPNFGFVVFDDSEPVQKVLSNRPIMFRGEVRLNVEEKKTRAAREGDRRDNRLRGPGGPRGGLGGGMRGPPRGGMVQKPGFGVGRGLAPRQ
# Technique: RNA Bind-n-Seq
# Form: RNA
# Medium: in vitro
# Concentration: 200 nM
# Notes: whole 134-nt RNA, ends assumed
# Together with: 150 mM KCl
# Reference: input library
# Direction: higher = stronger binding
# Shared flanks, not repeated: GGGAGUUCUACAGUCCGACGAUC … UGGAAUUCUCGGGUGUCAAGG
Oligonucleotide,log2 enrichment
CACAGACAACACGCACCCACACCGACACAGAGGGAAGGGGUUGGGAUGGGGACAGGGUGCACAGCAGGGCGGGGUAGGACCCCAGCCCCU,2.02
CUCAAGUCCUGUGCUACACAUCGUAUGUACCGAAUCGGUUUGGAAAGGAAAGGAAAGUAUUAUGUUACGCCGUUCGGAUCUGCACUUCCA,-0.361
GUCCUGUGCUACACAUCGUAUGUACCGAAUCAAACCCCCAAACCCCCCCAAAUUUAAAAAAGUAUUAUGUUACGCCGUUCGGAUCUGCAC,-0.127
CUCAAGUCCUGUGCUACACAUCGUAUGUACCGAAUCGGGGCCGGCCGGGGCCGGAAAGUAUUAUGUUACGCCGUUCGGAUCUGCACUUCC,-0.296
GUCCUGUGCUACACAUCGUAUGUACCGAAUCGGCCCCCCGGGCCCCCCGGCCCCCCGGGAAAGUAUUAUGUUACGCCGUUCGGAUCUGCA,-0.517
UGCUUCUGAGUUGCCCAGGAGACCACUGGCAGAUGUCCCGGCGAAGAGAAGAGACACAUUGUUGGAAGAAGCAGCCCAUGACAGCUCCCC,0.221
AGUCCUGUGCUACACAUCGUAUGUACCGAAUCGGGAAAAGGGGAAAAGGGGAAAAGGGAAAGUAUUAUGUUACGCCGUUCGGAUCUGCAC,-0.0445
ACCAUGCAGGUGGGCAUUUUUGGGAAGUGGGGCAAGGGGGGGAUAGGGAGGGGGGUAACACUUUGGGAACAGGUGGUCCCAGGUCGUUUC,1.28
UUCCUCAAGUCCUGUGCUACACAUCGUAUGUACCGAAUCGGAGGAGGAGGGAAAGUAUUAUGUUACGCCGUUCGGAUCUGCACUUCCAGC,-0.662

# Block 2
# Target: Sox-I, HMG box (Salpingoeca helianthica)
# Technique: Spec-seq
# Form: double-stranded DNA, one strand shown
# Medium: in vitro
# Concentration: not given
# Notes: whole probe, mean of replicates
# Reference: not given
# Direction: lower = stronger binding
# Shared flanks, not repeated: GAGTCGTCTCGTCAGCAC … CCGTAGAGCACTCAGGTC
# Construct (chain): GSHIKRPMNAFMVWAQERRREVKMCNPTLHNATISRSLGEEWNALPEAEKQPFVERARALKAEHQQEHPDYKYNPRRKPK
Oligonucleotide,relative binding energy [ln ratio]
CATTACC,0.468
CACAGTT,-0.0762
CATGTGA,1.03
GTCAGTT,0.275
GCAAGTT,0.56
GCCCGTT,0.265
CATGTTT,1.03
CCCTGTT,-0.576
CCGTGTT,0.131
CATAAGA,0.197
ATTGGTT,0.0926
AGATGTT,-0.227
GCGCGTT,1.05
CATCGTG,0.943
CATAACT,0.439
CATAATG,-0.764
CATTAGG,0.692
CATTTGA,1.02
CATGTAT,0.878
CATAAAA,-0.135
CAGAGTT,0.75
CATGATC,0.578
TTCAGTT,-0.0927
CATTGGT,0.983
CATATAG,0.353

# Block 3
# Target: RNA binding protein fox-1 homolog 2, RRM domain, GST-SBP tag (RBFOX2, Homo sapiens, UniProt O43251-10, residues 100-194)
# Technique: RNA Bind-n-Seq
# Form: RNA
# Medium: in vitro
# Concentration: 365 nM
# Notes: natural RNA segment, single round, ends assumed
# Reference: no-protein control
# Direction: higher = stronger binding
# Shared flanks, not repeated: GGGAGUUCUACAGUCCGACGAUC … UGGAAUUCUCGGGUGCCAA
# Target sequence (chain): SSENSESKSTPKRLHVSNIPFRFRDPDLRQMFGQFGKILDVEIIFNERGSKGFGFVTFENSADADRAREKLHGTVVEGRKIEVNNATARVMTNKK
Oligonucleotide,RBNS enrichment (R)
AGCUUGCUGAAAUGGAAAACUUGGAAGAAUUGUUCAUCUCUUAGGCUUCCAUUUGGAUGGGCCUGCCUUAACAUUGUUUGAAAUGCAGCGUGAGUAGCUCUUUUGUUUAC,0.302
UUGCCCUUUCUUCCCGAGGGCUGUGGGCCAGCGCUCCGAAGGAAGCAAUCAAGGGGAGAAAACACAGUGUAAGCCGCUGUCAAUAAAUGACACCCAGACCUUCCAGCUGC,0.408
AGUGACUCUAUUUUCCCUGAGCUUGCUCCCUGAGGACCCACCACAGCCUCAUCCUUUGCCUUGCUGGCUUUCUGGGCACGUCUUAAAGCUGAUGUGAAUCCAUCCAGGGC,0.371
AUGCCAUAAUGCCUGUUGGUAUUUGGCAAAGCACUGACCCGUGUCCUCCGUUGCUCGCACUGGGGUCUCUGGUGUGAACACCCCCGACAGCAGCCCUCCGCCCACUCUGC,0.292
CUUUCUGUCAAUUUUGUUGUUGUUGUUGUUUUUCAUUUUCUUUUUUUCUCUUGACUCCUCCUUUUAGGAUGUCCAGAUGUAAAAAAAAAAAAAAAAAAAAGAAAAAAAGA,1.11
AUGUGUUCCCACACAUCCACAUCAUGGGAAGGUUAAUGUGUGCCUCCUUGGAACUGGGUGUUGGUGUCCAUGGAACUUCCUCUCUGUAUCUCAGGUCAGUAGGCGCAGAA,0.765
AACAGCAAGCAGAACACCGUGCAUGCUGGCCACAGCAGUGGAGCCAAGUCUCUGCUGGUUACGGAGCUAUACGGUACUGCAGGAGUUCUACAUACCUGCUGCGCAGAGAC,1.85
UAUAGCUUGCCAGUAUUGUUAAGGUAUCCAAAGCCUUUCUAGAUAGAGACAGGAACAUUGACUUGAACAUAUGUAUGUAAGAGUCCAGGCUCAUUCUGAGUUGAUGAAAA,2.01

# Block 4
# Target: Histone acetyltransferase KAT6A, both winged helices, GST fusion (KAT6A, Homo sapiens, UniProt Q92794, residues 1-181)
# Technique: protein binding microarray
# Form: double-stranded DNA, one strand shown
# Medium: in vitro
# Concentration: not given
# Notes: 8-mer, flanks averaged, mean of 2 arrays, mostly near background
# Reference: not given
# Direction: higher = stronger binding
# Residues (chain): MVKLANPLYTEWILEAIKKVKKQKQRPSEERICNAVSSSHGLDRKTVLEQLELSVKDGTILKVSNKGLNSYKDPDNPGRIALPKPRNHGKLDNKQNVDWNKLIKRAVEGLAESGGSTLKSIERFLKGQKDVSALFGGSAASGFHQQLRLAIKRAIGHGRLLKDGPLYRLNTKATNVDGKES
Oligonucleotide,E-score
CATTTTAC,0.0455
CCTCAGAG,-0.129
AAATCACT,-0.279
GAATCGTA,0.00266
TCAAAACA,0.00302
GAGTAATC,-0.0439
ACAGCGAA,-0.0502
GATACTGC,-0.01
CAGTACTA,-0.129
AGTAACCC,0.00419
ATGGGCTC,-0.144
CCATGACC,-0.046
ATCTCAAG,-0.209
ATAACCCG,0.22
CTTAACGC,0.00581
ATAATCCA,-0.102
CCGGCGAA,0.256
ATACAATG,-0.0806
CCAAAGTC,-0.144
CGAGCATA,-0.114
AACCAATG,-0.3
GATGAAGC,-0.0939
ACATCTCT,-0.0369
GACGTGCA,-0.0994
AATACGCC,0.115

# Repeated from above (block 4):
Oligonucleotide,E-score
CTTAACGC,0.00581
CGAGCATA,-0.114
ACAGCGAA,-0.0502
ACATCTCT,-0.0369
CCTCAGAG,-0.129
GACGTGCA,-0.0994
ATACAATG,-0.0806
AATACGCC,0.115
CCATGACC,-0.046
GAATCGTA,0.00266
GATGAAGC,-0.0939
